{"data": "Results of several laboratories", "note": "Every numbered part comes from another study and shows a few of its results, in no order. Several values in a cell are separate wells, animals, samples, runs or records.", "sequence of UniProt Q9H4B4 (whole entry, looked up)": "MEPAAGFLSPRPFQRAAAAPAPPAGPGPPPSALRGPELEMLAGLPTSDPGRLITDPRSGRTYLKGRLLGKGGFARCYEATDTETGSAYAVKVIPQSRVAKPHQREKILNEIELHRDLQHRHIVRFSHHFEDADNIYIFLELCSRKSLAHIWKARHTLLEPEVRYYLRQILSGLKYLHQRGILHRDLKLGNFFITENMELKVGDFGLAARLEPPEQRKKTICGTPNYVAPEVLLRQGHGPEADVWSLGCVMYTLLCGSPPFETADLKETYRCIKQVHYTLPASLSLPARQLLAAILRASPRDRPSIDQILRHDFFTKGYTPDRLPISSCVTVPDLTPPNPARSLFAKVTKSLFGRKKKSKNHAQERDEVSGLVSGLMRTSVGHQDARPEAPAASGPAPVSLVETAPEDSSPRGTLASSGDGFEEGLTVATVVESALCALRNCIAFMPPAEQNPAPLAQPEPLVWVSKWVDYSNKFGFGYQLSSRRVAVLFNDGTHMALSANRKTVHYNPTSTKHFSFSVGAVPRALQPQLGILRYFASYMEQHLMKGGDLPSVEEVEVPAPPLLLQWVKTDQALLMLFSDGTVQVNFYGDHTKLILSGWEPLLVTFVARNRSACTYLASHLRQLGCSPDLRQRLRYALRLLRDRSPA", "sequence of UniProt Q96PY6 (whole entry, looked up)": "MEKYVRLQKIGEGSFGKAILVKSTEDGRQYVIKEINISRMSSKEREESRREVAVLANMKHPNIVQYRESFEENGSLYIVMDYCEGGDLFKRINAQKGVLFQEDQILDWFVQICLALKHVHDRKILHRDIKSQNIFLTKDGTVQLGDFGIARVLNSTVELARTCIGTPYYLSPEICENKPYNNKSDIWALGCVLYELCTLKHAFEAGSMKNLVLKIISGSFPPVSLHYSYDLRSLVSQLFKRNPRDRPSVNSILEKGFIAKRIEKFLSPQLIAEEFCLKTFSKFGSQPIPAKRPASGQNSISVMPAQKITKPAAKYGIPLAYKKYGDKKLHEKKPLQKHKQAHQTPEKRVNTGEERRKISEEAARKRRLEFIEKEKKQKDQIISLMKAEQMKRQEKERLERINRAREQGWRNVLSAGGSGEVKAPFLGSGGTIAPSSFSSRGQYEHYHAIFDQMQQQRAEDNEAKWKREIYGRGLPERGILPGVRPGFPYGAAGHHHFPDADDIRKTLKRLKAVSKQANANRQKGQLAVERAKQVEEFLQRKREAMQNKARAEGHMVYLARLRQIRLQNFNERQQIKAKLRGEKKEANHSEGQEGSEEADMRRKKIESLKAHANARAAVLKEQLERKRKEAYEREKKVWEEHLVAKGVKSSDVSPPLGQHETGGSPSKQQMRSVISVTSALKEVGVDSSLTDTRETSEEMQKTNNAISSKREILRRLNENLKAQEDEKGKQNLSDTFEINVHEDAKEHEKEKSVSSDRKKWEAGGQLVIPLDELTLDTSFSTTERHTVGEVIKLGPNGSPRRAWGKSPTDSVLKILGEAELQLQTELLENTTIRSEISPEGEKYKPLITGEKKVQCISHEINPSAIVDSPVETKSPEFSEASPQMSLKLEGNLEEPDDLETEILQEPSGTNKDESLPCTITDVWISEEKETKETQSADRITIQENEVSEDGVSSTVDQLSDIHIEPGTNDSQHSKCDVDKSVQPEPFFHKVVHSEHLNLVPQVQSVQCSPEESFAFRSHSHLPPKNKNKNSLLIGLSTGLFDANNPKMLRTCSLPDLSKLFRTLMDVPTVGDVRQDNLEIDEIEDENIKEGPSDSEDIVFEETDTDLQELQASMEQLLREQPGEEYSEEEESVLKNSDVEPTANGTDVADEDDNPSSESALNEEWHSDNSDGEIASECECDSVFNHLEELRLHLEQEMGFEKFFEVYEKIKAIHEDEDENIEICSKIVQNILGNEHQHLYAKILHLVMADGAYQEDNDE", "sequence of UniProt Q8IU85 (whole entry, looked up)": "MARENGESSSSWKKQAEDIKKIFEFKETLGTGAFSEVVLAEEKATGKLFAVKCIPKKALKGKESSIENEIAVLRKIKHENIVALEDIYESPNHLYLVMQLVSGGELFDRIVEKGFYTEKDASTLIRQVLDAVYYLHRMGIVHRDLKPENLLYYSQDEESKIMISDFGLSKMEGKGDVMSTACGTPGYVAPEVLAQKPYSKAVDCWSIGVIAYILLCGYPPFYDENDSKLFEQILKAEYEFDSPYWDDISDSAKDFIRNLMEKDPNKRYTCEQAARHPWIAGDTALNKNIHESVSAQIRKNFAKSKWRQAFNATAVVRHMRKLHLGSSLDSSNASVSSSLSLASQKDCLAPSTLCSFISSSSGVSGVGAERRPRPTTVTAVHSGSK", "sequence of UniProt P09619 (whole entry, looked up)": "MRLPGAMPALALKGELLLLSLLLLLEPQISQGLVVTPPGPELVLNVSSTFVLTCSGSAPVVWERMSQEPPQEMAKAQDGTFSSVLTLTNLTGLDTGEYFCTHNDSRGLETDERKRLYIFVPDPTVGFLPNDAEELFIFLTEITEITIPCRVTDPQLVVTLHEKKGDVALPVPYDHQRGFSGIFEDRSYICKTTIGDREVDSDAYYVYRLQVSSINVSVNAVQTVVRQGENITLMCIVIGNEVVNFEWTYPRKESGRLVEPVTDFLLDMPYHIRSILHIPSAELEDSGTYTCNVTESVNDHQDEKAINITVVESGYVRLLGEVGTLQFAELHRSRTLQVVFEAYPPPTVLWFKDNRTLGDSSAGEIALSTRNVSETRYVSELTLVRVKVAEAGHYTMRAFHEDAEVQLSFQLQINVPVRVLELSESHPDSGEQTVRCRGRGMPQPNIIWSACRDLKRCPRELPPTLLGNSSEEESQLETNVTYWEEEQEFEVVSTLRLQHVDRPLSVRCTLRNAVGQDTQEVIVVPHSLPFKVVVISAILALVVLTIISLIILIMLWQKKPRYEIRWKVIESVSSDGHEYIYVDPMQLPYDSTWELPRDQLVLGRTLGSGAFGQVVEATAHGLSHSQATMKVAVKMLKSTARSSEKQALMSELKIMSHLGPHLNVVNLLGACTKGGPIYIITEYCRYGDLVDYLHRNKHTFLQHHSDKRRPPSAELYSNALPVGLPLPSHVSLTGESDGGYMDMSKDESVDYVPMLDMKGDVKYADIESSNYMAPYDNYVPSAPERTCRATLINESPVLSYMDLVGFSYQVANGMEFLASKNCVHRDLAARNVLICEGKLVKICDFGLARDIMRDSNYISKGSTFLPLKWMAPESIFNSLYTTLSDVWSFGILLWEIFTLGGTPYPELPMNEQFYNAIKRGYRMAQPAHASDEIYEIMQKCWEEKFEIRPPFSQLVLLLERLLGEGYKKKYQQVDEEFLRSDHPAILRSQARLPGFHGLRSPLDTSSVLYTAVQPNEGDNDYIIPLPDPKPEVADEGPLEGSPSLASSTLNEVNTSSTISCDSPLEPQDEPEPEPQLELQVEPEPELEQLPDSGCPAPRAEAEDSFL", "sequence of UniProt P36897 (whole entry, looked up)": "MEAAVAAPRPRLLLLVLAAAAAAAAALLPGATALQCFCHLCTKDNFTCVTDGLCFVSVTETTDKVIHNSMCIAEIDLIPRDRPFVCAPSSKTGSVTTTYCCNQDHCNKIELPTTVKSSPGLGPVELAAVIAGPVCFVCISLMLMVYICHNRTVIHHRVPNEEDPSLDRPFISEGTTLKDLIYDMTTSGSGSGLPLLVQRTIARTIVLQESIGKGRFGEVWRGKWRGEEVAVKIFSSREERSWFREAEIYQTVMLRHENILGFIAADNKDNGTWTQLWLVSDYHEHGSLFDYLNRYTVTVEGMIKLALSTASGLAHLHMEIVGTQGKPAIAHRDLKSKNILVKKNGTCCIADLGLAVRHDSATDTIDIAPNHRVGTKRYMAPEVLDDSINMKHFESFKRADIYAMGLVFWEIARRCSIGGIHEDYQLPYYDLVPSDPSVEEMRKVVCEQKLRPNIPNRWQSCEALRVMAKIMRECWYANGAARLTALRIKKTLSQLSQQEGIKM", "sequence of UniProt P53671 (whole entry, looked up)": "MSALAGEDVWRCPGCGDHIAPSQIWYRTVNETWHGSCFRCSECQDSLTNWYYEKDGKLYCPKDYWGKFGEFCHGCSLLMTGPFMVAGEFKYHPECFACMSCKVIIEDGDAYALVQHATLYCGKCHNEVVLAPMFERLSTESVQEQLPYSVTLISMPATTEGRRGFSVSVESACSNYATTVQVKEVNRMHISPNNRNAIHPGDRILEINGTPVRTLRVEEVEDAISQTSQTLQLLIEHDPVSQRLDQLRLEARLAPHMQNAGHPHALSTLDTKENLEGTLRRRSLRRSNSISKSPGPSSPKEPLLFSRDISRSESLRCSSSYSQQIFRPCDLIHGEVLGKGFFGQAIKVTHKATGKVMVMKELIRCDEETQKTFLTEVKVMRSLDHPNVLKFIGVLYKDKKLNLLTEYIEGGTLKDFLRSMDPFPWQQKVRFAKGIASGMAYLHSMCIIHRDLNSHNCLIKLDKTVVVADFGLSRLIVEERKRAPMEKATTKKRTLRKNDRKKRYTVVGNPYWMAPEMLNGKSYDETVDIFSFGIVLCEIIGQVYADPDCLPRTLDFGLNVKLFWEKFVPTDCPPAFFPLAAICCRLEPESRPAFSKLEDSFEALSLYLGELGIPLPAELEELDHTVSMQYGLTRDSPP"}
{"data": "Set 1", "SMILES": "CC(C)CC(=O)N1CCc2nc(-c3ccc(Br)cc3)nc(N(C)Cc3ccccc3)c2C1", "effect on": "cell-free assay", "method": "competition with immobilised ligand", "concentration": "0.1 µM"}
{"target": "TGFBR1 (Homo sapiens, UniProt P36897)", "remaining binding": "100%"}
{"target": "LIM domain kinase 2 (LIMK2, Homo sapiens, UniProt P53671)", "remaining binding": "100%"}
{"target": "PLK3 (Homo sapiens, UniProt Q9H4B4)", "remaining binding": "100%"}
{"target": "PDGFRB (Homo sapiens, UniProt P09619)", "remaining binding": "100%"}
{"target": "EGFR (Homo sapiens, UniProt P00533, del747-750/T751S)", "remaining binding": "100%"}
{"target": "MYLK4 (Homo sapiens, UniProt Q86YV6)", "remaining binding": "100%"}
{"target": "CAMK1D (Homo sapiens, UniProt Q8IU85)", "remaining binding": "100%"}
{"target": "BUB1 (Homo sapiens, UniProt O43683)", "remaining binding": "78%"}
{"data": "Set 2", "target": "Calcium/calmodulin-dependent protein kinase type II subunit alpha (CAMK2A, Homo sapiens, UniProt Q9UQM7)", "effect on": "enzyme activity", "action": "inhibitor", "concentration": "10 µM", "sequence of UniProt Q9UQM7 (whole entry, looked up)": "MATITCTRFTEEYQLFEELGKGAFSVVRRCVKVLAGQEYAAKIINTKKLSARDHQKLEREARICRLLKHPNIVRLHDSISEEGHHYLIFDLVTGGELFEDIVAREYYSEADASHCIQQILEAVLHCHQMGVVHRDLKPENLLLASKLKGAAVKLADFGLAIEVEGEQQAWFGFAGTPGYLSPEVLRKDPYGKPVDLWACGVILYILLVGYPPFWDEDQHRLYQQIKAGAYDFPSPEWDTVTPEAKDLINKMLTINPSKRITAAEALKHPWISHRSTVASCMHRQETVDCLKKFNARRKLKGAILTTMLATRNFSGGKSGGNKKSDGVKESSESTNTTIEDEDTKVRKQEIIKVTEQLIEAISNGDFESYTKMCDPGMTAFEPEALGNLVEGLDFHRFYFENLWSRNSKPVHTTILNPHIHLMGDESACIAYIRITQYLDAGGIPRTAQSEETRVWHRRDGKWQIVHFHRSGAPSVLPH"}
{"SMILES": "COc1ccc(C(=O)/C=C/c2ccccc2)cc1", "inhibition [%]": -26}
{"SMILES": "C[C@@H]1CC(=O)NN=C1c1ccc(NN=C(C#N)C#N)cc1", "inhibition [%]": -4}
{"SMILES": "COc1c(O[C@@H]2O[C@H](CO)[C@@H](O)[C@H](O)[C@H]2O)cc2c(c1O)C(=O)c1c(cc(C)c(O)c1OC)C2=O", "inhibition [%]": -1}
{"SMILES": "CC(C)[C@H](NC(=O)CN)C(=O)O", "inhibition [%]": -7}
{"SMILES": "CC(=O)N[C@@H](CCCCN)C(=O)O", "inhibition [%]": 25}
{"SMILES": "CC1(C)CC[C@]2(C(=O)O[C@@H]3O[C@H](CO[C@@H]4O[C@H](CO)[C@@H](O)[C@H](O)[C@H]4O)[C@@H](O)[C@H](O)[C@H]3O)CC[C@]3(C)C(=CC[C@@H]4[C@@]5(C)CC[C@H](O[C@@H]6OC[C@H](O)[C@H](O)[C@H]6O)[C@@](C)(CO)[C@@H]5CC[C@]43C)[C@@H]2C1", "inhibition [%]": -7}
{"SMILES": "O=c1c(O)c(-c2ccc(O[C@@H]3O[C@H](CO)[C@@H](O)[C@H](O)[C@H]3O)c(O)c2)oc2cc(O)cc(O)c12", "inhibition [%]": -9}
{"SMILES": "COc1cc(C(=O)O)cc(OC)c1O", "inhibition [%]": -57}
{"data": "Set 3", "SMILES": "CC(=O)N[C@@H](Cc1c[nH]c2ccccc12)C(=O)N[C@@H](CCC(=O)C=[N+]=[N-])C(=O)OC(C)C", "host": "mice bearing EL4 tumours", "matrix": "EL4 tumour", "dose": "dose not given", "with": "13C5-glutamine"}
{"assay": "refers to: malate M+0", "isotope enrichment": "87.8% and 84.4% and 88.7% and 83.1% and 89.8% and 86.2%"}
{"assay": "refers to: succinate M+4", "isotope enrichment": "13.7% and 10.3% and 14.7% and 10% and 11.8% and 11.3%"}
{"assay": "refers to: fumarate M+0", "isotope enrichment": "96% and 94.7% and 99.1% and 90.5% and 90.7% and 90.8%"}
{"assay": "refers to: glutamate M+0", "isotope enrichment": "81.6% and 84.5% and 83% and 77.4% and 82.8% and 79.6%"}
{"data": "Other studies, line by line"}
{"Compound": "COc1ccc2c(c[n+](C)c3c4cc5c(cc4ccc23)OCO5)c1OC", "target": "Serine/threonine-protein kinase Nek1 (NEK1, Homo sapiens, UniProt Q96PY6)", "assay": "enzyme activity, inhibitor", "conditions": "0.5 µM", "how to read": "reference: control", "endpoint": "remaining activity", "value": "91.3%"}
{"note": "A few entries again (set 2):"}
{"SMILES": "C[C@@H]1CC(=O)NN=C1c1ccc(NN=C(C#N)C#N)cc1", "inhibition [%]": -4}
{"SMILES": "COc1c(O[C@@H]2O[C@H](CO)[C@@H](O)[C@H](O)[C@H]2O)cc2c(c1O)C(=O)c1c(cc(C)c(O)c1OC)C2=O", "inhibition [%]": -1}
